Measurements gathered from unrelated publications.
Parts stem from different laboratories: compare values within a part only.
UniProt P35626, sequence (whole entry, looked up): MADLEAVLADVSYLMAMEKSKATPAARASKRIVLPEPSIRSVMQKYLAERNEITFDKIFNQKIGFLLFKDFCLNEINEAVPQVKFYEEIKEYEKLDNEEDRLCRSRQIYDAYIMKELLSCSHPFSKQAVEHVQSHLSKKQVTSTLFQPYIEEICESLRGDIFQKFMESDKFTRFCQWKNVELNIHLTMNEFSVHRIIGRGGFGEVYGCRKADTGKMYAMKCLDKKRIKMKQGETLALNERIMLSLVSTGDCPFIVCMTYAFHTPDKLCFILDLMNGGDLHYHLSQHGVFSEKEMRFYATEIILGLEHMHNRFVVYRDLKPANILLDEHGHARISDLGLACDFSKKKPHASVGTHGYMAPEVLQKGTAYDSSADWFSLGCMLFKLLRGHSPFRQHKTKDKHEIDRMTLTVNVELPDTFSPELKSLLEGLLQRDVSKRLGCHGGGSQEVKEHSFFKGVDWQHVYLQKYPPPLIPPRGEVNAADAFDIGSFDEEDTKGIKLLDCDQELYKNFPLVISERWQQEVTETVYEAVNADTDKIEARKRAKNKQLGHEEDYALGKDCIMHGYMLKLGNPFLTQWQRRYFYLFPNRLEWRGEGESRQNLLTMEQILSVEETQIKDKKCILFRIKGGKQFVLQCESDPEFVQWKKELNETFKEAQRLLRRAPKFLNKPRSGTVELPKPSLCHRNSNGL
UniProt P48736, sequence (whole entry, looked up): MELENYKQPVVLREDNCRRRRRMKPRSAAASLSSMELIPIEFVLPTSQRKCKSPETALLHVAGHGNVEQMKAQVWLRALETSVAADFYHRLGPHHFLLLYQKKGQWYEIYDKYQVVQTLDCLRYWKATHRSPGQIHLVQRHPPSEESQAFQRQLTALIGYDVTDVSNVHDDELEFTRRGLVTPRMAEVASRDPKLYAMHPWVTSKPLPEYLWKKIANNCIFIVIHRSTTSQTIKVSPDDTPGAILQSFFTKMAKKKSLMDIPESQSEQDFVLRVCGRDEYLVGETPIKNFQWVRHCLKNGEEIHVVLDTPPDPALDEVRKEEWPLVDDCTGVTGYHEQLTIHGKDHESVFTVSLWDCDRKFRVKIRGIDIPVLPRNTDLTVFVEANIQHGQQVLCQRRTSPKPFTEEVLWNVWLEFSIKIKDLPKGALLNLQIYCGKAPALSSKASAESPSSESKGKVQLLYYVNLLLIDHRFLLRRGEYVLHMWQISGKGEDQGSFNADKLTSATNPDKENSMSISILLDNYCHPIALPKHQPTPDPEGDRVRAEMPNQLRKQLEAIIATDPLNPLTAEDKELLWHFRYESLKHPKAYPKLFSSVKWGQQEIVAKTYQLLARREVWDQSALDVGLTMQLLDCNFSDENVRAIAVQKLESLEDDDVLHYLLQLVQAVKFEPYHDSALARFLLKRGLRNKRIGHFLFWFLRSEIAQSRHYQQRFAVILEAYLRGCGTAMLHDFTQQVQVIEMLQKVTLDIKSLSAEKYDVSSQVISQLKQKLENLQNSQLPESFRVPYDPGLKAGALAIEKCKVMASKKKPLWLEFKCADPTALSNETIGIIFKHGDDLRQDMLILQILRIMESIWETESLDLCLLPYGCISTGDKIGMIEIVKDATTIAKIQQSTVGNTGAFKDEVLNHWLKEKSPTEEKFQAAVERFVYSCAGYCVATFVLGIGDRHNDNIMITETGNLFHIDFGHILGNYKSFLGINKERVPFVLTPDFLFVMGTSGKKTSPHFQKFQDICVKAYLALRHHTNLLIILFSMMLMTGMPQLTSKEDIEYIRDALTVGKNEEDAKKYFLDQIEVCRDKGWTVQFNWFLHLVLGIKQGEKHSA
UniProt Q16816, sequence (whole entry, looked up): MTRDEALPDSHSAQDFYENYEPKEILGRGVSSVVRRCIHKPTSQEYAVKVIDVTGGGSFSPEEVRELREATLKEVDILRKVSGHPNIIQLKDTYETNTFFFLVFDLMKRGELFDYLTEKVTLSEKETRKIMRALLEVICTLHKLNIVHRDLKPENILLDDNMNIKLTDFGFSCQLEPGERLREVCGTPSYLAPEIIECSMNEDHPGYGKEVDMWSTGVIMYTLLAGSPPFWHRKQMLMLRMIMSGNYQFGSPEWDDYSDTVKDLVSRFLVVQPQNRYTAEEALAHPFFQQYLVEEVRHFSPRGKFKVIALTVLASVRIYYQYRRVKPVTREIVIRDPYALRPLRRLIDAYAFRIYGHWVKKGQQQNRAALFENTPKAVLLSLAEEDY
UniProt P53778, sequence (whole entry, looked up): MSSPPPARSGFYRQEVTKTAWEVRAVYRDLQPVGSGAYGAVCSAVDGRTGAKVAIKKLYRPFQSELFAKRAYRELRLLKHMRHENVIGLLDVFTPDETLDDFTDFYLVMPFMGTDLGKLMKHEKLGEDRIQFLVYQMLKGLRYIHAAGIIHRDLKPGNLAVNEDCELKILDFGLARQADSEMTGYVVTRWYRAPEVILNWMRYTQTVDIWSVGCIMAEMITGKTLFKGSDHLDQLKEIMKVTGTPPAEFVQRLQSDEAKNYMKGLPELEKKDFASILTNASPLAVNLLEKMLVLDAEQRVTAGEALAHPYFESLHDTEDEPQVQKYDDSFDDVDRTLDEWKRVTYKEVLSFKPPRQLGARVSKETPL
UniProt Q8WXR4, sequence (whole entry, looked up): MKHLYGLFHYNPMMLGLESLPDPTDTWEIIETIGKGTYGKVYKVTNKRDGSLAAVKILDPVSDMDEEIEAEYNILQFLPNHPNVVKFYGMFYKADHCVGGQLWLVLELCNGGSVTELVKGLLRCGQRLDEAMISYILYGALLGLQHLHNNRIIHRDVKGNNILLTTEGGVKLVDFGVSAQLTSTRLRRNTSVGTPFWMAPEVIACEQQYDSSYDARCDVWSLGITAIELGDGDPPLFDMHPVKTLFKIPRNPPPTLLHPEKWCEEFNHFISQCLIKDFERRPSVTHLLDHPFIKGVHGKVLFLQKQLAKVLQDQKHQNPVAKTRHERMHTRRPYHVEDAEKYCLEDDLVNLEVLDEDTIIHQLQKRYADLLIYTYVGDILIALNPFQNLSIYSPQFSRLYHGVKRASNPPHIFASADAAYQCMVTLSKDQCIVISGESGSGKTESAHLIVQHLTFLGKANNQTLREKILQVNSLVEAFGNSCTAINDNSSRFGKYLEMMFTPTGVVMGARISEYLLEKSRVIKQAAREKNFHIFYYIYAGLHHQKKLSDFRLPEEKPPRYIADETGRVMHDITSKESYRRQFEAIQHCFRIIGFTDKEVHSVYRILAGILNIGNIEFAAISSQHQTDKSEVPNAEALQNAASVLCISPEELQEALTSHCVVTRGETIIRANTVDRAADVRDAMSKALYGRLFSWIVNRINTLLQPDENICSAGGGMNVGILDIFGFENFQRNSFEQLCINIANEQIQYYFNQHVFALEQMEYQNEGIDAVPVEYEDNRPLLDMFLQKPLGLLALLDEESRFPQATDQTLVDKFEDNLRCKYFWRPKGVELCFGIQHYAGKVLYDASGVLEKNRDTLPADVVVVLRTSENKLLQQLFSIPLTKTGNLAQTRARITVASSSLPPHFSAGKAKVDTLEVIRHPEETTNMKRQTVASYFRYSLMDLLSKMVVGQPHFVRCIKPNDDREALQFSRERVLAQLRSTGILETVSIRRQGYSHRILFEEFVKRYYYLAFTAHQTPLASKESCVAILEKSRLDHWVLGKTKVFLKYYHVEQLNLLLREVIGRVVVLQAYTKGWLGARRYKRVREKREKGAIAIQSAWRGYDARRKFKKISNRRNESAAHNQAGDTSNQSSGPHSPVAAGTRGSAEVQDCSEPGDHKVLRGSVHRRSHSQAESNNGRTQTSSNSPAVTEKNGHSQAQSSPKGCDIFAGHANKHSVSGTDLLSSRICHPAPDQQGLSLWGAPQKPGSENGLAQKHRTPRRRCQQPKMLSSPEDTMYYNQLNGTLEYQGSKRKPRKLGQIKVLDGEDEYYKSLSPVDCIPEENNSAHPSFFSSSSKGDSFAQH
UniProt P15735, sequence (whole entry, looked up): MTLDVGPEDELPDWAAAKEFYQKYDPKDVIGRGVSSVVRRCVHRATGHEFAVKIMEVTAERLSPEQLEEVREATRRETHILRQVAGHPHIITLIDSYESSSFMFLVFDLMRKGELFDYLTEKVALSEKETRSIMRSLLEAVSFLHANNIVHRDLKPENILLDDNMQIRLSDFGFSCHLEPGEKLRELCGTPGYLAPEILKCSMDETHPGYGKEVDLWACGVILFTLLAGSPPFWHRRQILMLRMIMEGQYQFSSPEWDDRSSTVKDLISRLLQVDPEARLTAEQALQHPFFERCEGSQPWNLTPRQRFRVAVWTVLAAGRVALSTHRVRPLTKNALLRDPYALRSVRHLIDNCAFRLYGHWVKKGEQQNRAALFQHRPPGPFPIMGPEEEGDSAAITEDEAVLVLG

Sample 1
SMILES: CN(C)c1ncnc(-c2ccc3nc(Nc4cc(CN5CCN(C(=O)CC(F)(F)F)CC5)ccn4)[nH]c3c2)c1Cl
Observed: cell-free assay
Method: competition with immobilised ligand
Tested at: 1 µM
The remaining binding was 68% (MARK2 (Homo sapiens, UniProt Q7KZI7)).
It gave 63% for remaining binding (EPHA3 (Homo sapiens, UniProt P29320)).
It gave 100% for remaining binding (ROS1 (Homo sapiens, UniProt P08922)).
Tyrosine-protein kinase JAK1, JH1 (JAK1, Homo sapiens, UniProt P23458) — remaining binding: 93%.
The remaining binding was 57% (MINK1 (Homo sapiens, UniProt Q8N4C8)).
The remaining binding was 44% (IRAK1 (Homo sapiens, UniProt P51617)).
The remaining binding was 100% (PIK3CG (Homo sapiens, UniProt P48736)).
The remaining binding was 84% (CSK (Homo sapiens, UniProt P41240)).
For FYN (Homo sapiens, UniProt P06241): remaining binding read 68%.
The remaining binding was 96% (PHKG1 (Homo sapiens, UniProt Q16816)).
The remaining binding was 100% (TSSK1B (Homo sapiens, UniProt Q9BXA7)).
The remaining binding was 74% (CDK16 (Homo sapiens, UniProt Q00536)).
EGFR (Homo sapiens, UniProt P00533) — remaining binding: 100%.
It gave 100% for remaining binding (PHKG2 (Homo sapiens, UniProt P15735)).
The remaining binding was 100% (Myosin-IIIa (MYO3A, Homo sapiens, UniProt Q8NEV4)).
It gave 86% for remaining binding (MAP3K13 (Homo sapiens, UniProt O43283)).
BTK (Homo sapiens, UniProt Q06187) — remaining binding: 80%.
It gave 89% for remaining binding (TLK1 (Homo sapiens, UniProt Q9UKI8)).
MAPK15 (Homo sapiens, UniProt Q8TD08) — remaining binding: 73%.
It gave 78% for remaining binding (GRK3 (Homo sapiens, UniProt P35626)).
It gave 100% for remaining binding (Myosin-IIIb (MYO3B, Homo sapiens, UniProt Q8WXR4)).
MAPK12 (Homo sapiens, UniProt P53778) — remaining binding: 68%.
The remaining binding was 90% (GRK7 (Homo sapiens, UniProt Q8WTQ7)).
For PAK6 (Homo sapiens, UniProt Q9NQU5): remaining binding read 100%.

Sample 2
Target: Sal-like protein 4, full length isoform B (SALL4, Homo sapiens, UniProt Q9UJQ4-2, residues 1-616)
Method: universal PBM
Form: double-stranded DNA, one strand shown
Sample: in vitro
Tested at: not given
Setting: 8-mer, flanks averaged, mean of replicates
Reading: higher = stronger binding
Target sequence (chain): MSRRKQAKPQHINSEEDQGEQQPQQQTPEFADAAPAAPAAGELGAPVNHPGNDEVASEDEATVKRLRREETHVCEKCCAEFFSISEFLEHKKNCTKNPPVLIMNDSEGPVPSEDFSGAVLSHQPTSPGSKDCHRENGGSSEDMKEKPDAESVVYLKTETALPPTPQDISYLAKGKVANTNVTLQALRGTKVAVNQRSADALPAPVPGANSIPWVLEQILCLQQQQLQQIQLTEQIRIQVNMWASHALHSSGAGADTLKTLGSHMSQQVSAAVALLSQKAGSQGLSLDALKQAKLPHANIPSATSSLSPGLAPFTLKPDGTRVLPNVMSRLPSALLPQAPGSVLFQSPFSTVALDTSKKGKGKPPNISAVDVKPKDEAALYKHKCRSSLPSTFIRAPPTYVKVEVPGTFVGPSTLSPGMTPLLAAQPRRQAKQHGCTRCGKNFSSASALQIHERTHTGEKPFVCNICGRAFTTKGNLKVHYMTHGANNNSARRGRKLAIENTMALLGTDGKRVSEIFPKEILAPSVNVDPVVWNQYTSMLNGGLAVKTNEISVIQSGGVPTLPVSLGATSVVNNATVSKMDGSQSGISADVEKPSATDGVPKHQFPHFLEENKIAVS
With `ACGGCAGA` the E-score was -0.159.
`ATGCTCGC` gave an E-score of -0.195.
With `ACGAATCT` the E-score was 0.0719.
`AGCCTAAT` gave an E-score of 0.0691.
The E-score of `CACCCTGG` is reported as -0.342.
For `ACCGATAG`, the E-score was -0.0415.
The E-score of `CAGATACC` is reported as -0.0267.
`AAGCGTTA` gave an E-score of 0.0585.

Sample 3
Cell line: yeast with cyclin F-Cln2 chimera
Observed: cell growth
Mode: binder
Method: competitive growth deep sequencing
Form: peptide
Tested at: concentration not given
Setting: peptide tiling library
Reading: direction not given
`ALTMEALEDPSPELME` — result for “growth enrichment score”: 0.667.
`LRRQLSFSED` — result for “growth enrichment score”: 2.08.
`PAKRRLELGE`: “growth enrichment score” 3.46.
For `EPRNLLSLFEDTLDPT`, “growth enrichment score” read 3.05.
Under “growth enrichment score”, `KPITLDTTDFQESFVT` is recorded as -0.105.
For `VKRLNFRSEEME`, “growth enrichment score” read 1.96.
`ESSQLTVQAEFDMSAI` — result for “growth enrichment score”: 0.0226.
`AIRKMREDRWAVIAKM` — result for “growth enrichment score”: 0.937.

Sample 4
Target: Tyrosine-protein kinase HCK (HCK, Homo sapiens, UniProt P08631)
UniProt P08631, sequence (whole entry, looked up): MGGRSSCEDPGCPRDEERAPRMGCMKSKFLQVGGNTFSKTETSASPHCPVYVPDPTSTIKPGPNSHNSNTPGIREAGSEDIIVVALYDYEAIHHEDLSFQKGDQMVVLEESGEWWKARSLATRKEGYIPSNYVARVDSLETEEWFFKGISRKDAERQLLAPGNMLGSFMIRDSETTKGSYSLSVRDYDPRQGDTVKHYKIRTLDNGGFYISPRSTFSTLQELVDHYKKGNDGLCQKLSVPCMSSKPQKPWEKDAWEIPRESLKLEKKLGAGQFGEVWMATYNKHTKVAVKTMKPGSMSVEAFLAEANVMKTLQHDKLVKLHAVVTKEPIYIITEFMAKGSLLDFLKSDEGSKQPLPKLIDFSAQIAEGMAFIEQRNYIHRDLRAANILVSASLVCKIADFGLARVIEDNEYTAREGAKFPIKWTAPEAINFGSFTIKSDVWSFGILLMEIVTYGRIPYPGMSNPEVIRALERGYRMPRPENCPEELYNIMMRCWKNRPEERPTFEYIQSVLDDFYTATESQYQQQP
Observed: enzyme activity
Mode: inhibitor
Tested at: 0.5 µM
Baseline: control
`Nc1ncnc2n[nH]c(Nc3ccc(F)cc3)c12` gave a remaining activity of 90.7%.
The remaining activity of `OCC(O)CCON=C1C(c2c(O)[nH]c3ccccc23)=Nc2ccccc21` (stereo not shown) is reported as 23%.
For `CC(C)[C@H](CO)Nc1nc(Nc2cc(N)cc(Cl)c2)c2ncn(C(C)C)c2n1`, the remaining activity was 27.3%.
`Cc1nc(-c2ccccc2)c(-c2ccncc2)o1` gave a remaining activity of 98.9%.
The remaining activity of `COc1ccc(OC)c2c(=S)c3ccccc3[nH]c12` is reported as 95.8%.
`O=C(CCCc1ccc(-c2ccccc2F)cc1)Nc1ccc(O)cc1` has a remaining activity of 93.5%.
`O=C(Nc1cccc(Nc2cc(Nc3cccc(C(F)(F)F)c3)ncn2)c1)C1CC1` has a remaining activity of 99%.
For `Cn1sc(=O)n(Cc2ccccc2)c1=O`, the remaining activity was 103%.
`CN(C)c1ccc(C=C2C(=O)Nc3ccccc32)cc1` gave a remaining activity of 110%.
For `Nc1ccc2ncnc(NCCc3ccc(Oc4ccccc4)cc3)c2c1`, the remaining activity was 96.4%.
`O=C(O)c1ccc2c3c1cccc3c(=O)n1c3ccccc3nc21` gave a remaining activity of 96.7%.
With `Cc1ccc(NC(=O)c2ccc(CN3CCN(C)CC3)cc2)cc1Nc1nc(-c2cccnc2)cs1` the remaining activity was 55.7%.
`CO[C@H]1C[C@@H]2CC[C@@H](C)[C@@](O)(O2)C(=O)C(=O)N2CCCC[C@H]2C(=O)O[C@H]([C@H](C)C[C@@H]2CC[C@@H](O)[C@H](OC)C2)CC(=O)[C@H](C)/C=C(\C)[C@@H](O)[C@@H](OC)C(=O)[C@H](C)C[C@H](C)/C=C/C=C/C=C/1C` has a remaining activity of 102%.
With `CCOC(=O)c1c(C)[nH]c(/C=C2\C(=O)Nc3ccccc32)c1C` the remaining activity was 92.6%.
`COc1ccc(C(=O)Nc2sc3c(c2C(N)=O)CCCC3)cc1OC` gave a remaining activity of 109%.
